Assay results collected from several papers.
± gives the spread as reported.

CCOc1ccc(Cc2cc([C@@H]3S[C@H](CO)[C@@H](O)[C@H](O)[C@H]3O)c(OC)cc2C)cc1 — Tmax (Japanese type 2 diabetes patients, plasma; oral, 5 mg single dose, eGFR 60-89 mL/min/1.73 m^2, median): 0.5 h
Cc1ccc(Sc2ccccc2N2CCNCC2)c(C)c1 — Tmax (healthy men, plasma; oral, 5 mg once daily, fed, day 1): 11.8 h
CS(=O)(=O)n1cc2c(n1)CN([C@H]1CO[C@H](c3cc(F)ccc3F)[C@@H](N)C1)C2 — Tmax (healthy Japanese men, plasma; oral, 50 mg once weekly, day 15): 1 h
Cc1ccc(NC(=O)c2ccc(CN3CCN(C)CC3)cc2)cc1Nc1nccc(-c2cncc(-c3oncc3C)c2)n1 — Tmax (Parkinson's disease patients, plasma; oral, 50.0 mg once daily, day 1, 7-day dosing, mean): 4.66 h
CC(C)=CCC[C@](C)(O[C@@H]1O[C@H](CO)[C@@H](O)[C@H](O)[C@H]1O)[C@H]1CC[C@]2(C)[C@@H]1[C@H](O)C[C@@H]1[C@@]3(C)CC[C@H](O[C@@H]4O[C@H](CO)[C@@H](O)[C@H](O)[C@H]4O)C(C)(C)[C@@H]3CC[C@]12C — Tmax (LC-MS/MS; healthy male volunteers, serum; oral, 3 g red ginseng): 6.85 ± 3.18 h
O=C1CCc2ccc(OCCCCN3CCN(c4cccc(Cl)c4Cl)CC3)cc2N1 — Tmax (healthy Japanese men, CYP2D6 EM, plasma; oral, 3 mg aripiprazole single, with: fluvoxamine 100 mg/day): 2 ± 1.5 h
CN[C@H](CC(C)C)C(=O)N[C@H]1C(=O)N[C@@H](CC(N)=O)C(=O)N[C@H]2C(=O)N[C@H]3C(=O)N[C@H](C(=O)N[C@H](C(=O)O)c4cc(O)cc(O)c4-c4cc3ccc4O)[C@H](O)c3ccc(c(Cl)c3)Oc3cc2cc(c3O[C@@H]2O[C@H](CO)[C@@H](O)[C@H](O)[C@H]2O[C@H]2C[C@](C)(N)[C@H](O)[C@H](C)O2)Oc2ccc(cc2Cl)[C@H]1O — Tmax (microdialysis; pig, intervertebral disc; intravenous infusion, 1000 mg, infusion 100 min): 4.5 h
COc1ccc2c3c1O[C@H]1C[C@@H](OC(=O)c4ccccc4)C=C[C@@]31CCN(C)C2 — Tmax (healthy young men, plasma; intranasal, 11 mg, single dose): 0.48 h
COc1cc(OC)c(/C=C/S(=O)(=O)Cc2ccc(OC)c(NCC(=O)O)c2)c(OC)c1 — Tmax (cancer patients, phase I, plasma; oral, 700 mg twice daily, day 21 cycle 1): 1.25 ± 0.35 h
CC1=C2C[C@H]3[C@@H](CC[C@@H]4C[C@H](NS(C)(=O)=O)CC[C@@]43C)[C@@H]2CC[C@@]2(C1)O[C@@H]1C[C@H](C)CN[C@H]1[C@H]2C — Tmax (patients, plasma; oral, 40 mg single, day -7, cycle 1): 5 h
NC(=O)c1cnc2[nH]ccc2c1N[C@@H]1[C@@H]2CC3C[C@H]1C[C@@](O)(C3)C2 — Tmax (healthy Japanese men, plasma; oral, 200 mg, single dose fasted median): 2 h

For quick reference, copied from above:
CS(=O)(=O)n1cc2c(n1)CN([C@H]1CO[C@H](c3cc(F)ccc3F)[C@@H](N)C1)C2 — Tmax (healthy Japanese men, plasma; oral, 50 mg once weekly, day 15): 1 h
